Published values gathered from unrelated publications.
A part holds a random share of what one study measured. Substitutions count along the parent as printed.

Sample 1 — technique: RNA Bind-n-Seq; molecule type: RNA; sample: in vitro; concentration: 365 nM; baseline: no-protein control; reading: higher = stronger binding; endpoint: RBNS enrichment (R)
Target: RNA binding protein fox-1 homolog 2, RRM domain, GST-SBP tag (RBFOX2, Homo sapiens, UniProt O43251-10, residues 100-194)
Notes: natural RNA segment, single round, ends assumed
Shared flanks, not repeated: GGGAGUUCUACAGUCCGACGAUC … UGGAAUUCUCGGGUGCCAA
Target sequence (chain): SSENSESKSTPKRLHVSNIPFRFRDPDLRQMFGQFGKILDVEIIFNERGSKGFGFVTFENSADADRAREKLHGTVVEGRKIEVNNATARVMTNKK
AAAAAACUCAGAUAUCCUAUACAACCUUUGCUUGUUCUUUUUAUUCUGGUAUCUAAAUACUGAGAAGUUCAUUUAUAAUUCAGCCUUGACUUGAAAACAUAGAUAGUUUA: 3.77
CUUUAACAGCUUACACUGAUUGGUGUUUUAUCUCCUGUGAUCCUUUGAUGGCUUUUUUUGCCUACCAUUUCACAGAGGUUUAGACAGCAGUAGUAGCUCCCUAGGAGAGU: 0.311
AUUAUACUGACUUUAUAUUAAUUAUUAUAAAACUGUGUUUGUACUGAAGAUGUGUUCAAUAUUUGUGGGAGGUUUGUCAUAAUCAGUUGGUGGGGUUCACUGCUCUGUUG: 0.587
AAUGACUUGUAUUGAUUGGUUUAUAACUUCACACAGGGGUGACAUAAAUGUAUAUCUUGAAAAAGAUAUAGGUCACAGGUGGCUUAACUCUCCCUAGUUCUCAGUAGAAU: 0.318
CUGGCCUUGGGAAACUCAUCCUACAGGGGAAGGCCAGUUUUUUUCCCUUCAAUUCCUCAAGUCUGGGUGGUGACAAGGUAGGGGCUAGGUACUGGACUACCACAGGUUUU: 0.874
UUUUUCUGACUUUGCAGCUGAGUCUGGAGAAAAGUGGCAUGCCAGAGCGGGUCGGUGGGAAACAGGGUGAACUUUAGCUUCCAUCAACAGCUCUGGUAGCAAAACCAGUC: 0.425
AGAUGGAGUACCAGCACCGAAAAUGGGUUGAGGGAGGAUGGGUUGUAUGUAUGUUUCUGCCCACUAAUUUUGAGCAGCCAUAUUAUGAAUUAAAUCGUCACAGCCAAGUA: 1.34
GAGGAUGACUUACGUGCUCUGAUUUAUAUCAUAAAGCAAGAAGACUGAGCAUUCUUACACUUGAUGGAAAAAUUAAAGCCUAGAAGGACCAAAGAUGUCCUUAUUGACAA: 0.595
CCUGAUUGACAGGAAUUUGCUGUCCUUGACACUCCACACAUUGUGUUCCUCACGUGUGGGACAGGACACAGAGCUGACUGAGCGUGGGACACUCCACAGCCUUCUCAUGA: 0.337
UGGGACCACAUCCUCCACUGUGGCUGACAACGCCCUUCCAAGGGAAUAUGGAAUGAGAACAUUCAUUAUUGAGGUUGUCCAAUGGCCAGGGUAUGCUUUCUAGAAAAUAU: 0.688
AAAUGGUUAAAUAUCAAAUGCUGCUGCUGCUGCCAAAAUUAUAUUAAUAGCGAGUUUCUGGCCCCUGGGCAAUUUUGUACCUUGUAAUUAUCCUAUGGUGAUGCUGUUUC: 0.757
GGCAGCGGGUCUCUGUCCUGGUAUUGAAUUUGCACAAGUGUGUGGUGACAUAUGUGCUUGUGGGCCACAGCUGGAGGAUGGCAAGCUUUCUGUUGUCCUCUGCCUAUGUG: 0.333

Sample 2 — technique: DHFR PCA, deep sequencing; sample: yeast; together with: (+)-ABA 0.0091 µM; baseline: wild-type fitted maximum; reading: higher = stronger binding; endpoint: relative binding score
Target: ABI1, truncated, D143A, DHFR fusion (Arabidopsis thaliana)
Notes: methotrexate growth selection, single substitutions
Starting sequence: PYL1, truncated, DHFR fusion (Arabidopsis thaliana); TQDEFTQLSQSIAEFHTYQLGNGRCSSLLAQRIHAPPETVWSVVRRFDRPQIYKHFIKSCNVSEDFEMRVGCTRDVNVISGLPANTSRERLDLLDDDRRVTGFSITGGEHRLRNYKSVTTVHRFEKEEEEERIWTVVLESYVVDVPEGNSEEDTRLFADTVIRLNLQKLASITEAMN
E152P: -2.82%
V43G: -2.45%
S11M: 16.3%
E152K: 2.55%
S42W: 0.509%
C72W: 3.74%
H122Y: -5.26%
R46I: -4.13%
K126I: 25.3%
R113G: 1.81%
V142I: 24%
V40S: -1.52%
C60L: -3.64%
W41G: -3.44%
V121P: 9.06%
H55E: 19.3%
I105N: 1.81%
C72R: -1.32%

Sample 3 — technique: RNA Bind-n-Seq; molecule type: RNA; sample: in vitro; concentration: 200 nM; notes: whole 134-nt RNA, ends assumed; together with: 150 mM KCl; baseline: input library; reading: higher = stronger binding; endpoint: log2 enrichment
Target: Fragile X messenger ribonucleoprotein 1, C-terminal low-complexity region (Fmr1, Mus musculus, UniProt P35922)
Shared flanks, not repeated: GGGAGUUCUACAGUCCGACGAUC … UGGAAUUCUCGGGUGUCAAGG
UAACUUUAGAGGAGGAUCUGAUGGAUAUGGCAGUGGACGUGGAUUUGGGGAUGGCUAUAAUGGGUAUGGAGGAGGACCUGGAGGUGGUAA: 0.144
AGUCCUGUGCUACACAUCGUAUGUACCGAAUCAAAUUUUUUUAAACCCAAAUUUAAAAAAGUAUUAUGUUACGCCGUUCGGAUCUGCACU: -0.607
CAAGUCCUGUGCUACACAUCGUAUGUACCGAAUCGGGGCCGGGGCCGGGGCCGGGGAAAGUAUUAUGUUACGCCGUUCGGAUCUGCACUU: -0.487
CACAGACAACACGCACCCACACAGACACAGAGGGAAGGGGUUGGAAAGGGGACAGGGUGCACAGCAGGGCGGGGUAGGACCCCAGCCCCU: 1.11
UUGUGAGAGCCACAGGAAAAGCAAGAAGGAGAAGAAGAAAAAGAAAAAGAGGAAACACAAGAAAGAGAAGAAGAAGAAAGACAAAGAGCA: 0.201
GCAGGAAGUAAAAACAAAUGGAAAUGCUUCGGAUAGUGGCAGGGGAGGGGGUUGCUAAGGAAAGGGUGGGAUGGGAGUGGGUAAAGAGUU: 0.0666
GGCGGAGCAGCUGAUGGAGGAGUGGAACGAAGACCUAGACGGCAUGGAGGGUUUCGUGCUGGAGGGCAAGAAGUUUGCGCGGCUGCCGGA: -0.993
UGGCCCUGGGGGCAUGCGGGGAGGAAGAGGUGGCCUCAUGGAUCGUGGUGGUCCCGGUGGAAUGUUCAGAGGUGGCCGUGGUGGAGACAG: -0.0467
CAAGUCCUGUGCUACACAUCGUAUGUACCGAAUCGGAAAAAGGAAAAAGGUUUGGAAAGUAUUAUGUUACGCCGUUCGGAUCUGCACUUC: -1.15
CAAGUCCUGUGCUACACAUCGUAUGUACCGAAUCGGGAAAAAAAGGGUGGGUGGGAAAGUAUUAUGUUACGCCGUUCGGAUCUGCACUUC: 1.1
CACAGACAACACGCACCCACACAGACACAGAGGGAAGGGGUUGGGAUGGGCACAGGGUGCACAGCAGGGCGGGGUAGGACCCCAGCCCCU: 1.26
UCUCUCUCUUUCCCUCUAGGGUCACAUCUCCCAGGAAGAUCUCACUUCCCCACAGAAGCUCUUGGCCUGGCCUCCUGCAGUGCCACGCUC: 0.805
ACCAUGCAGGUGGAAAUCUUUGGGAAGUGGGGCAAGGGGGGGAUAGGGAGGGGGGUAACACUUUGGGAACAGGUGGUCCCAGGUCGUUUC: 0.879
CCUCAAGUCCUGUGCUACACAUCGUAUGUACCGAAUCGGGAGGGAGGGGAGGGAAAGUAUUAUGUUACGCCGUUCGGAUCUGCACUUCCA: 1.37

Sample 4 — target: CCNB3, cyclin fold, Cln2 fusion (human); technique: yeast growth competition, sequencing; sample: yeast; notes: weak parent motif; baseline: not given; reading: higher = stronger binding; endpoint: normalised enrichment score
Starting sequence: E2F1 docking peptide (human); PPVKRRLDLETDH; partner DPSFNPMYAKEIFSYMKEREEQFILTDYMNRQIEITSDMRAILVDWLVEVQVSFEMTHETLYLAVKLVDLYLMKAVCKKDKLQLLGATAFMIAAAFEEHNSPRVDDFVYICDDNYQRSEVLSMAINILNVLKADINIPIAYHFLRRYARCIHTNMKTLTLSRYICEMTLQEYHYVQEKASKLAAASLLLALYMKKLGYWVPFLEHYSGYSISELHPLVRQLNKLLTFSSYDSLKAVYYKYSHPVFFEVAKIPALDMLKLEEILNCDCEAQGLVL
T11M: -0.0384
L7G: 0.192
T11G: 0.229
H13R: 0.371
D8R: -0.151
T11E: 0.105
V3I: 0.0355
P2E: 0.509
D12C: 0.456
R6C: 0.233
P1W: 0.844
L7D: 0.65
R6A: 0.173
R6W: 0.287
H13V: 0.637
E10H: 0.774
R6H: 0.431
V3C: 0.464
K4Y: -0.0448
R5T: -0.141
P2Y: 0.364
T11S: 0.806
E10T: 0.56
D8L: 0.554
P1G: 0.448
